Measurements gathered from unrelated publications.
Compare with care: the assays were run in different laboratories. Values joined by “and” are separate records of one study, mostly repeats; a detail may differ. ± marks the error that the study gave.

`O=C(O)CCCOc1ccc(F)cc1-c1cc(-c2ccccc2C(F)(F)F)n(-c2ccccc2)n1` has a blood chemistry of 9.7 ± 0.3 mg/dL (measured: Ca; Crl:CD(SD) rats, male, blood; iv, 25 µg/kg, 14 days).
`C1=Cc2nc1cc1ccc([n-]1)c(-c1ccccc1)c1nc(cc3ccc([n-]3)c2-c2ccccc2)C=C1.CC(=O)[O-].[Mn+3]` gave a plasma concentration of 53 ng/mL and 80 ng/mL (LC-MS/MS; Sprague-Dawley rat, plasma; oral gavage, dose not given, 60 min).
`Oc1c(Cl)cc2c(c1Cl)Oc1cc(Cl)c(Cl)cc1O2`: “dose fraction in milk fat” 53.1% (whole cow milk; 20 nM nominal).
With `CCc1ccc(CC/C=C/c2ccc3c(c2)C(=O)CC3)cc1` the Urea was 7.07 mM (Sprague-Dawley rat, female; oral, 120 mg/kg/day, 14 days).
For `O=C(Nc1ccccc1)C1CCN(C(=O)Oc2cccnc2)CC1`, “subjects with dry mouth” read 7.7% (adverse event reporting; healthy women; oral, 100 mg, 9 days).
The measured concentration of `O=C(O)CCC(CP(=O)(O)O)C(=O)O` (stereo not drawn) is reported as 7.73 ± 0.27 µg/mL (rat, plasma; 8 µg/mL, 28 days, -80 °C, long-term stability).
Under “deaths due to TRAEs”, `CO[C@H]1C[C@@H]2CC[C@@H](C)[C@@](O)(O2)C(=O)C(=O)N2CCCC[C@H]2C(=O)O[C@H]([C@H](C)C[C@@H]2CC[C@@H](OC(=O)NCCOCCOCCOCCOCCOCCOCCOCCOCCC(=O)N3CCc4cc(Cn5nc(-c6ccc7oc(N)nc7c6)c6c(N)ncnc65)ccc4C3)[C@H](OC)C2)C[C@@H](O)[C@H](C)/C=C(\C)[C@@H](O)[C@@H](OC)C(=O)[C@H](C)C[C@H](C)/C=C/C=C/C=C/1C` is recorded as 0% (phase 1 dose escalation; advanced solid tumour patients; intravenous, 8 mg weekly, any grade).
The serum Creatinine of `Clc1ccc(-c2ccccc2)cc1` is reported as 0.3 ± 0.1 mg/dL (rat Sprague-Dawley female, serum; inhalation, 35 µg/rat, 24 h).
For `CCc1cc(C(=O)NC)c2nccc(N3CCc4c(cc(Cn5ccnc5)cc4-c4cn(C)nc4C(F)(F)F)C3=O)c2c1`, “fraction of dose excreted” read 0.5 ± 0.4% (Sprague Dawley rats, male, bile duct-cannulated, bile; oral, 50 mg/kg, 24 h).
`C[C@@H](NC(=O)N1C(=O)[C@H](Cc2ccnc(N)c2)[C@H]1C(=O)O)C1CCCCC1`: “incidence of grade 3 or higher AEs” 0% (healthy adult Chinese volunteers; continuous intravenous infusion, 0.6 mg/kg/h, 5-day infusion, CTCAE 5.0 grading).
`C[C@]1(CO)Cc2ncn(-c3ccc(C#N)c(Cl)c3)c2C(=O)O1`: “drug-related Dizziness incidence” 8.3% (Chinese subjects; dose not given, all doses total).
`COc1cc2c(Oc3ccc4[nH]c(C)cc4c3F)ccnc2cc1OCC1(N)CC1` — result for “grade 1 or 2 sinus bradycardia”: 0% (paediatric recurrent refractory sarcoma; 8 mg).
